Published values of several laboratories.
Each numbered part is a random draw from the data of one study; scales do not carry over between parts.

Study 1 — technique: protein binding microarray; form: double-stranded DNA, one strand shown; medium: in vitro; concentration: not given; baseline: not given; direction: higher = stronger binding
Target: Histone acetyltransferase KAT6A, winged helix 1, GST fusion (KAT6A, Homo sapiens, UniProt Q92794, residues 1-85)
Setting: 8-mer, flanks averaged, mean of 2 arrays, mostly near background
Target sequence (chain): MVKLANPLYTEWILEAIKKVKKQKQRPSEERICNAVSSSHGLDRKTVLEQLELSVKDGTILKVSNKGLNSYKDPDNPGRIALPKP
Sequence	E-score
AATCGTAT	-0.152
ATGAAGGC	-0.0669
AGGACAAA	-0.238
TGCCTCCA	-0.0562
CGTACGAC	-0.0985
ATCCTAAG	-0.193
ATGCCCTG	-0.0712
GGCAGAAA	0.125
CATCGGAC	0.0727
AGCTACGC	0.156

Study 2 — technique: aptamer microarray, sandwich; form: DNA with 2'F-ANA; medium: in vitro; concentration: 200 nM; added: Cy3 exosite-II aptamer, 400 nM; direction: higher = stronger binding; sequence: GGTTGGTGTGGTTGG
Target: Prothrombin, mature alpha-thrombin (F2, Homo sapiens, UniProt P00734)
Setting: whole 15-mer aptamer, many near background
Modification	mean fluorescence intensity
2'F-ANA at 2 3 4 5 6 7 9 10 11 12 13 14	53.5 a.u.
2'F-ANA at 1 3 4 5 6 9 10 11 13 14 15	87.3 a.u.
2'F-ANA at 3 9 11 14	637 a.u.
2'F-ANA at 9 10 11 12 13	171 a.u.
2'F-ANA at 1 2 7 11 15	151 a.u.
2'F-ANA at 1 2 4 5 7 9 11 15	49.3 a.u.
2'F-ANA at 1 2 6 7 8 9 10 12 14 15	50.9 a.u.

Study 3 — technique: Sort-seq; refers to: YFP reporter; medium: E. coli; setting: PhoQ-PhoP variant library; added: 10 µM Mg2+; baseline: high Mg2+ state; direction: higher = stronger signaling
Substance: PhoQ, residues 284 288 289 292 302 303 TLSLKA
target	fold induction
PhoP, residues 12 14 15 18 19 NYFRM (Escherichia coli, UniProt P23836)	7.76
PhoP, residues 12 14 15 18 19 QYFSL (Escherichia coli, UniProt P23836)	3.54
PhoP, residues 12 14 15 18 19 TQALL (Escherichia coli, UniProt P23836)	1.8

Study 4 — technique: protein-binding microarray; form: double-stranded DNA, one strand shown; medium: in vitro; concentration: 2200 nM top; setting: 60-bp whole probe; added: salmon DNA 0.4 mg/ml; baseline: random background probes; direction: higher = stronger binding; shared flanks, not repeated: GCCTAGCAC … GTCTTGATTCGCTTGACGCTGCTG
Target: Interferon regulatory factor 7, full length, phosphomimetic (IRF7, Homo sapiens, UniProt Q92985, residues 1-503, S471D/S472D/S475D/S476D/S477D/S483D/S484D/S487D)
Target sequence (chain): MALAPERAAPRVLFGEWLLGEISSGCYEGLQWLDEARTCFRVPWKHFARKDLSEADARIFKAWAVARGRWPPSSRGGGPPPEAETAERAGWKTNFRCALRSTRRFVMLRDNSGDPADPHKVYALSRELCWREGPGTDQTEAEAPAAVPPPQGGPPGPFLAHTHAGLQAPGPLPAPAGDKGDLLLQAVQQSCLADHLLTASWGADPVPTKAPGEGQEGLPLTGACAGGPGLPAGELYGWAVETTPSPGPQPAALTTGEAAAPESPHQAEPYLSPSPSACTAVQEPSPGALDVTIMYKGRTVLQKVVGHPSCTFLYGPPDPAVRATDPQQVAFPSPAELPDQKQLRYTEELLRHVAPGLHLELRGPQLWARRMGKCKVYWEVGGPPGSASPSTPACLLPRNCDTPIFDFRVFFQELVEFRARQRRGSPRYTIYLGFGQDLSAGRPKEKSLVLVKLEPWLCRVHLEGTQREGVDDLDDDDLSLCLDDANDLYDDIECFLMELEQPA
Sequence	fitted relative affinity
GACGATTTTAGTTCCGAGACGTGCTAG	0.956 z-score
GACGGTAACGACTTTCGGGACGTGCTA	2.44 z-score
TTAGGACTGGGACTGGGTCAGTGCTAG	-1.12 z-score
TTAGGTTTCCTTATTCTTTAGTGCTAG	1.71 z-score
TTAGGTATCGACTATCAGTTAGTGCTA	-0.13 z-score
TTAGGTTCCCTTGTCCTTTAGTGCTAG	1.24 z-score

Repeated from above (study 2):
Modification	mean fluorescence intensity
2'F-ANA at 3 9 11 14	637 a.u.
2'F-ANA at 1 2 6 7 8 9 10 12 14 15	50.9 a.u.
